Measured values from different studies.
Compare with care: the assays were run in different laboratories.
EGFR: Epidermal growth factor receptor (EGFR, Homo sapiens, UniProt P00533)

Cc1cc(O)c(-c2ccc([C@@H](C)CN(C)C)cc2)c2c1[nH]c(=O)c1sccc12 — inhibition (EGFR; inhibitor, KiNativ probe labelling; cell lysate; 0.1 µM): 2.45%
C#Cc1cc(-c2cc(Nc3nc(N[C@@H](C)c4ccc(F)cn4)ncc3Cl)n[nH]2)ccc1C=O — inhibition (EGFR (Homo sapiens, UniProt P00533, L861Q); enzyme activity, inhibitor; 0.2 µM): 30.4%
COc1ccc(-c2nn(-c3ccc(S(C)(=O)=O)cc3)cc2C=N/N=c2\[nH]c(-c3ccc([N+](=O)[O-])cc3)cs2)cc1 — inhibition (EGFR; kinase activity, inhibitor; 10 µM): 82.7%
NC/C(=C\F)COc1cccc(Cn2c(=S)[nH]c(=O)c3[nH]cnc32)c1 — inhibition (EGFR; radioligand binding, item: EGF binding; 10 µM): < 50%
O=C(c1ccc(F)cc1)N(Cc1ccccc1)C1CCCCC1 — inhibition (EGFR; 10 µM): -8%
COc1ccc(-c2nn(-c3ccc(S(C)(=O)=O)cc3)cc2/C=N/N=c2\[nH]c(-c3ccc(Br)cc3)cs2)cc1 — inhibition (EGFR; kinase activity, inhibitor; 0.1 µM): 58.1%
[2H]c1cc(C)c(NC(=O)c2cnc(Nc3cc(N4CCCCC4)nc(C)n3)s2)c(Cl)c1 — inhibition (EGFR (Homo sapiens, UniProt P00533, del746-750/T790M); 0.01 µM): < 30%
CC(C)Cc1ccc(-c2nn(-c3ccc(S(C)(=O)=O)cc3)cc2/C=N/N=c2\[nH]c(-c3ccc([N+](=O)[O-])cc3)cs2)cc1 — inhibition (EGFR; kinase activity, inhibitor; 10 µM): 80.3%
C=CC(=O)Nc1cc(Nc2nccc(Nc3cc(Cl)c(F)cc3C(C)(C)O)n2)c(OC)cc1N1CC[C@@H](N(C)C)C1 — inhibition (EGFR; mouse; dose not given): > 80%

Excerpt of the above:
[2H]c1cc(C)c(NC(=O)c2cnc(Nc3cc(N4CCCCC4)nc(C)n3)s2)c(Cl)c1 — inhibition (EGFR (Homo sapiens, UniProt P00533, del746-750/T790M); 0.01 µM): < 30%
